Published values gathered from unrelated publications.
Each line is one published result; not all experiments were run side by side.

SMILES	organism	assay	system	setting	quantity	result
Oc1c(Br)cc(Br)cc1-c1[nH]c(Br)c(Br)c1Br	Listeria ivanovii		BAA-139		MIC	0.13 µM
CC(C)C[C@H](NC(=O)[C@H](Cc1c[nH]c2ccccc12)NC(=O)[C@H](CC(C)C)NC(=O)[C@@H](NC(=O)[C@H](CC(C)C)NC(=O)[C@H](CCCNC(=N)N)NC(=O)[C@@H](N)CCCNC(=N)N)[C@@H](C)O)C(=O)N[C@H](C(=O)N[C@@H](CC(C)C)C(=O)N[C@@H](CCCNC(=N)N)C(=O)N[C@@H](CCCNC(=N)N)C(N)=O)[C@@H](C)O	Lacticaseibacillus rhamnosus		1.038, probiotic strain	24 h, 37 °C, tested up to 128 µM	MIC	128 µM
CC1(C)SC2C(NC(=O)C(NC(=O)C3=C(O)C(Cc4ccsc4)NC3=O)c3ccccc3)C(=O)N2C1C(=O)O (stereo not shown)	Escherichia coli	broth microdilution	isolate IU, CTX-M-14, TEM-1	added: clavulanic acid 6 µg/mL	MIC	200 µg/mL
CC[C@H](C)[C@H](NC(=O)[C@H](CC(C)C)NC(=O)[C@H](CCCCN)NC(=O)[C@@H](NC(=O)[C@H](C)NC(=O)[C@H](CCC(=O)O)NC(=O)[C@H](Cc1c[nH]cn1)NC(=O)[C@@H](NC(=O)[C@H](CCCCN)NC(=O)[C@H](CCC(N)=O)NC(=O)[C@H](Cc1ccccc1)NC(=O)[C@@H](N)C(C)C)[C@@H](C)CC)[C@@H](C)CC)C(N)=O	Gram-positive and Gram-negative bacteria			geometric mean	MIC	256 µM
CC1(C)SC2C(NC(=O)C(NC(=O)C3=C(O)C(Cc4ccccc4)NC3=O)c3ccccc3)C(=O)N2C1C(=O)O (stereo not shown)	Escherichia coli	broth microdilution	JW0790-2 fiu deletion mutant	ferric iron uptake gene	MIC	12.5 µg/mL
N=C(N)c1ccc(OCc2ccc(-c3ccccc3)cc2COc2ccc(C(=N)N)cc2)cc1	Escherichia coli		mcr-1	20 h, compound alone	MIC	100 µg/mL
OC(Cn1cncn1)(Cn1cncn1)c1ccc(F)cc1F	Nakaseomyces glabratus		azole-resistant, RPMI 1640	24 h, 35 °C	MIC	100 µM
C[C@H](NC(=O)[C@H](CCCNC(=N)N)NC(=O)[C@H](Cc1c[nH]c2ccccc12)NC(=O)[C@H](CCCNC(=N)N)NC(=O)[C@H](Cc1c[nH]c2ccccc12)NC(=O)[C@H](Cc1c[nH]c2ccccc12)NC(=O)[C@H](Cc1c[nH]c2ccccc12)NC(=O)[C@H](CCCNC(=N)N)NC(=O)[C@H](Cc1c[nH]c2ccccc12)NC(=O)[C@@H](N)CCCNC(=N)N)C(N)=O	Candida albicans	broth microdilution	CGMCC 2.209, RPMI 1640-MOPS	48 h, 30 °C, added: MgCl2 1 mM	MIC	8 µM
CC1(C)SC2C(NC(=O)C(NC(=O)C3=C(O)C(Cc4ccc(F)cc4)NC3=O)c3ccccc3)C(=O)N2C1C(=O)O (stereo not shown)	Escherichia coli	broth microdilution	JW0790-2 fiu deletion mutant	ferric iron uptake gene	MIC	25 µg/mL
CC[C@H](C)[C@H](NC(=O)[C@H](CCCNC(=N)N)NC(=O)[C@H](Cc1c[nH]c2ccccc12)NC(=O)[C@H](CCCNC(=N)N)NC(=O)[C@H](Cc1c[nH]c2ccccc12)NC(=O)[C@H](Cc1c[nH]c2ccccc12)NC(=O)[C@H](Cc1c[nH]c2ccccc12)NC(=O)[C@H](CCCNC(=N)N)NC(=O)[C@H](Cc1c[nH]c2ccccc12)NC(=O)[C@H](CCCNC(=N)N)NC(=O)CN)C(N)=O	Candida albicans	broth microdilution	CGMCC 2.209, RPMI 1640-MOPS	48 h, 30 °C, added: ZnCl2 8 µM	MIC	4 µM
O=c1ccc2nc3ccc(OCc4ccc([N+](=O)[O-])o4)cc3oc-2c1	Stenotrophomonas maltophilia			24 h	MIC	> 32 µg/mL
CC1(C)S[C@@H]2[C@H](NC(=O)[C@H](N)c3ccccc3)C(=O)N2[C@H]1C(=O)O	Escherichia coli	broth microdilution	Keio mutant JW0587-1	18 h, enterobactin-related gene	MIC	6.25 µg/mL
C[C@H](NC(=O)[C@H](CCCNC(=N)N)NC(=O)[C@H](Cc1c[nH]c2ccccc12)NC(=O)[C@H](CCCNC(=N)N)NC(=O)[C@H](Cc1c[nH]c2ccccc12)NC(=O)[C@H](Cc1c[nH]c2ccccc12)NC(=O)[C@H](Cc1c[nH]c2ccccc12)NC(=O)[C@H](CCCNC(=N)N)NC(=O)[C@H](Cc1c[nH]c2ccccc12)NC(=O)[C@H](CCCNC(=N)N)NC(=O)CN)C(N)=O	Candida albicans	broth microdilution	56467, RPMI 1640-MOPS	48 h, 30 °C	MIC	8 µM
COc1ccc(Cl)c(Nc2nc3ccccc3nc2NS(=O)(=O)c2cccc(NC(=O)C(C)(C)N)c2)c1	human coronavirus OC43	virus-induced cell killing	MRC-5	maximum over 10 doses	maximum inhibition	0%
CC(C)[C@H](NC(=O)[C@H](CCCNC(=N)N)NC(=O)[C@H](Cc1c[nH]c2ccccc12)NC(=O)[C@H](CCCNC(=N)N)NC(=O)[C@H](Cc1c[nH]c2ccccc12)NC(=O)[C@H](Cc1c[nH]c2ccccc12)NC(=O)[C@H](Cc1c[nH]c2ccccc12)NC(=O)[C@H](CCCNC(=N)N)NC(=O)[C@H](Cc1c[nH]c2ccccc12)NC(=O)[C@@H](N)CCCNC(=N)N)C(N)=O	Candida albicans	broth microdilution	SP3876, RPMI 1640-MOPS	48 h, 30 °C	MIC	8 µM
CC1(C)SC2C(NC(=O)C(NC(=O)C3=C(O)C(Cc4ccco4)NC3=O)c3ccccc3)C(=O)N2C1C(=O)O (stereo not shown)	Escherichia coli	broth microdilution	Keio mutant JW0146-2	18 h, ferric hydroxamate uptake gene	MIC	12.5 µg/mL
O=C(Nc1ccc(OC(F)(F)F)cc1)c1sccc1NCc1ccnc2ccccc12	human coronavirus OC43	virus-induced cell killing	MRC-5	screen	maximum inhibition	3.21%
N=C(N)NCCC[C@H](NC(=O)[C@H](Cc1c[nH]c2ccccc12)NC(=O)[C@H](CCCNC(=N)N)NC(=O)[C@H](Cc1c[nH]c2ccccc12)NC(=O)[C@H](Cc1c[nH]c2ccccc12)NC(=O)[C@H](Cc1c[nH]c2ccccc12)NC(=O)[C@H](CCCNC(=N)N)NC(=O)[C@H](Cc1c[nH]c2ccccc12)NC(=O)[C@H](CCCNC(=N)N)NC(=O)CN)C(N)=O	Candida albicans	broth microdilution	17546, RPMI 1640-MOPS	48 h, 30 °C	MIC	8 µM
CC[C@H](C)[C@H](NC(=O)[C@H](CCCCN)NC(=O)[C@H](CCCCN)NC(=O)[C@H](Cc1ccccc1)NC(=O)[C@@H](NC(=O)[C@@H](NC(=O)[C@H](CCCNC(=N)N)NC(=O)[C@H](Cc1ccccc1)NC(=O)[C@@H](NC(=O)[C@H](CCCCN)NC(=O)[C@H](CCCCN)NC(=O)[C@@H](N)CCSC)[C@@H](C)CC)C(C)C)[C@@H](C)CC)C(=O)N[C@@H](CC(C)C)C(=O)N[C@@H](CCCCN)C(=O)N[C@@H](CCCNC(=N)N)C(=O)N[C@@H](CC(C)C)C(=O)N[C@H](C(=O)N[C@H](C(=O)O)C(C)C)[C@@H](C)CC	Staphylococcus aureus	broth microdilution	ATCC 25923	10% fetal bovine serum	MIC	8 µg/mL

Some of these lines once more:
SMILES	organism	assay	system	setting	quantity	result
C[C@H](NC(=O)[C@H](CCCNC(=N)N)NC(=O)[C@H](Cc1c[nH]c2ccccc12)NC(=O)[C@H](CCCNC(=N)N)NC(=O)[C@H](Cc1c[nH]c2ccccc12)NC(=O)[C@H](Cc1c[nH]c2ccccc12)NC(=O)[C@H](Cc1c[nH]c2ccccc12)NC(=O)[C@H](CCCNC(=N)N)NC(=O)[C@H](Cc1c[nH]c2ccccc12)NC(=O)[C@H](CCCNC(=N)N)NC(=O)CN)C(N)=O	Candida albicans	broth microdilution	56467, RPMI 1640-MOPS	48 h, 30 °C	MIC	8 µM
CC[C@H](C)[C@H](NC(=O)[C@H](CC(C)C)NC(=O)[C@H](CCCCN)NC(=O)[C@@H](NC(=O)[C@H](C)NC(=O)[C@H](CCC(=O)O)NC(=O)[C@H](Cc1c[nH]cn1)NC(=O)[C@@H](NC(=O)[C@H](CCCCN)NC(=O)[C@H](CCC(N)=O)NC(=O)[C@H](Cc1ccccc1)NC(=O)[C@@H](N)C(C)C)[C@@H](C)CC)[C@@H](C)CC)C(N)=O	Gram-positive and Gram-negative bacteria			geometric mean	MIC	256 µM
C[C@H](NC(=O)[C@H](CCCNC(=N)N)NC(=O)[C@H](Cc1c[nH]c2ccccc12)NC(=O)[C@H](CCCNC(=N)N)NC(=O)[C@H](Cc1c[nH]c2ccccc12)NC(=O)[C@H](Cc1c[nH]c2ccccc12)NC(=O)[C@H](Cc1c[nH]c2ccccc12)NC(=O)[C@H](CCCNC(=N)N)NC(=O)[C@H](Cc1c[nH]c2ccccc12)NC(=O)[C@@H](N)CCCNC(=N)N)C(N)=O	Candida albicans	broth microdilution	CGMCC 2.209, RPMI 1640-MOPS	48 h, 30 °C, added: MgCl2 1 mM	MIC	8 µM
